{"data": "Assay results from different studies", "note": "Compare with care: the assays were run in different laboratories. ± marks the error that the study gave."}
{"Structure (SMILES)": "CCCCCOc1ccc(-c2ccc(-c3ccc(C(=O)N[C@H]4C[C@@H](O)[C@@H](O)NC(=O)[C@@H]5[C@@H](O)[C@@H](C)CN5C(=O)[C@H]([C@@H](C)O)NC(=O)[C@H]([C@H](O)[C@@H](O)c5ccc(O)cc5)NC(=O)[C@@H]5C[C@@H](O)CN5C(=O)[C@H]([C@@H](C)O)NC4=O)cc3)cc2)cc1", "test system": "human", "conditions": "concentration not given", "endpoint": "peak blood bilirubin", "value": "11.5 mg/dL"}
{"Structure (SMILES)": "CC[C@H](C)[C@H](NC(=O)[C@H](CCCCN)NC(=O)[C@H](CCCCN)NC(=O)[C@H](C)NC(=O)[C@@H](NC(=O)[C@H](CCCCN)NC(=O)[C@H](C)NC(=O)[C@H](C)NC(=O)[C@@H](NC(=O)CNC(=O)[C@H](C)NC(=O)[C@@H](NC(=O)[C@H](CCCCN)NC(=O)[C@@H]1CCCN1C(=O)[C@H](Cc1ccccc1)NC(=O)[C@@H](N)Cc1ccccc1)C(C)C)C(C)C)C(C)C)C(=O)N[C@@H](Cc1ccccc1)C(=O)N[C@H]1CSSC[C@@H](C(=O)O)NC(=O)[C@H](CCCCN)NC(=O)[C@H](CCCCN)NC(=O)[C@H](CO)NC(=O)[C@H]([C@@H](C)CC)NC(=O)[C@H]([C@@H](C)O)NC1=O", "assay": "haemolysis", "test system": "horse erythrocytes", "conditions": "2 h, 37 °C", "endpoint": "HC50", "value": "41.3 µM"}
{"Structure (SMILES)": "O[C@H]1CCCN[C@@H]1CCCn1cnc2c(Cl)c(Cl)ccc21", "test system": "healthy human volunteers, plasma", "conditions": "oral, 50 mg, day 1, median", "endpoint": "Tmax", "value": "0.125 days"}
{"Structure (SMILES)": "CC(=O)N[C@H](CCCCNC(=O)C(C)F)C(=O)N[C@@H](CS)C(=O)N[C@@H](CS)C(=O)N[C@@H](CCC(=O)O)C(=O)N[C@@H](Cc1c[nH]cn1)C(=O)N[C@H](Cc1ccccc1)C(=O)N[C@@H](CCCNC(=N)N)C(=O)N[C@@H](Cc1c[nH]c2ccccc12)C(=O)N[C@@H](CS)C(=O)N[C@@H](CCCNC(=N)N)C(=O)N1CCC[C@H]1C(=O)N[C@H](C(N)=O)C(C)C (stereo partly drawn) [fluorine-18 labelled]", "test system": "C57BL/6 mice, male, B16-F10 tumour, tumor", "conditions": "intravenous, 4 h", "endpoint": "tissue uptake", "value": "1.09 ± 0.23 %ID/g"}
{"Structure (SMILES)": "CN[C@@](C)(C[18F])C(=O)O", "test system": "SCID mouse A549 xenograft, kidney", "conditions": "120 min, post injection", "endpoint": "tissue uptake", "value": "4.1 ± 0.9 %ID/g"}
{"Structure (SMILES)": "CCCCCCCCCCCC[N+](C)(C)C", "assay": "ultrafiltration", "test system": "human serum", "endpoint": "unbound fraction in blood", "value": 0.027}
{"Structure (SMILES)": "Cc1cc(C(C#N)c2ccc(Cl)cc2)c(Cl)cc1NC(=O)c1cc(I)cc(I)c1O (stereo not drawn)", "assay": "HPLC, non-compartmental", "test system": "Corriedale lambs, parasitized, plasma", "conditions": "oral, 10 mg/kg, added: moxidectin 0.2 mg/kg oral", "endpoint": "MRT", "value": "26.9 ± 4.94 days"}
{"Structure (SMILES)": "[123I]c1cncc(OC[C@@H]2CCN2)c1", "assay": "SPECT", "test system": "human, fusiform gyrus", "conditions": "intravenous bolus, 7.35 mCi", "scale": "baseline: tissue over plasma", "endpoint": "tissue/plasma ratio", "value": 27.5}
{"Structure (SMILES)": "Nc1nc(N)nc(N)n1", "test system": "CD IGS rat, female, pregnant, serum", "conditions": "oral, 1000 mg/kg/day, 10 days, with rectangular renal crystals", "endpoint": "serum concentration", "value": "89 to 683 µg/mL"}
{"Structure (SMILES)": "CSCC[C@H](NC(=O)[C@H](CCCNC(=N)N)NC(=O)[C@@H](NC(=O)[C@@H](NC(=O)[C@H](CCCNC(=N)N)NC(=O)[C@@H]1CCCN1C(=O)[C@H](CCCNC(=N)N)NC(=O)[C@@H](NC(=O)[C@H](Cc1c[nH]cn1)NC(=O)[C@H](CCCNC(=N)N)NC(=O)[C@H](CC(C)C)NC(=O)[C@H](CCCCN)NC(=O)[C@H](CC(C)C)NC(=O)CNC(=O)[C@H](CCCNC(=N)N)NC(=O)[C@H](CCCCN)NC(=O)[C@@H](NC(=O)c1ccc2c(c1)C(=O)OC21c2ccc(O)cc2Oc2cc(O)ccc21)C(C)C)C(C)C)C(C)C)[C@@H](C)O)C(=O)N[C@@H](CC(=O)O)C(=O)N[C@H](C(=O)O)C(C)C", "assay": "no effect", "test system": "Sprague-Dawley rat, excised skin", "conditions": "50 µmol/L, 37 °C, FAM-labelled CPP conjugate", "scale": "baseline: free FAM", "endpoint": "apparent skin permeability", "value": "no effect"}
{"Structure (SMILES)": "CSCC[C@@H]1NC(=O)[C@H](CC(=O)O)NC(=O)CNC(=O)[C@H](CCCNC(=N)N)NC(=O)[C@H](C)NC(=O)[C@H](CCC(=O)O)NC(=O)[C@H](CCCNC(=N)N)NC(=O)[C@@H]2CSSC[C@@H]3NC(=O)[C@H](CO)NC(=O)[C@H]([C@@H](C)O)NC(=O)[C@@H]4CCCN4C(=O)[C@H](C)NC(=O)[C@H](Cc4c[nH]c5ccccc45)NC(=O)[C@H](CC(=O)O)NC(=O)CNC(=O)[C@H](CCCNC(=N)N)NC(=O)CNC(=O)[C@H](CCC(N)=O)NC(=O)[C@@H]4CCCN4C(=O)[C@@H](NC(=O)CNC(=O)C(C)F)CSSC[C@H](NC(=O)CNC(=O)[C@H](C)NC(=O)[C@H](CC(C)C)NC(=O)[C@H](CSSC[C@@H](C(=O)NCC(N)=O)NC(=O)[C@H]([C@@H](C)O)NC(=O)[C@H](CCCNC(=N)N)NC(=O)[C@@H]4CCCN4C1=O)NC(=O)[C@H](CC(=O)O)NC(=O)[C@H](CO)NC(=O)[C@H](CC(=O)O)NC(=O)[C@H](CCC(N)=O)NC(=O)[C@H](CO)NC3=O)C(=O)N[C@@H](C(C)C)C(=O)N2 (stereo partly drawn) [fluorine-18 labelled]", "test system": "nude mice U-87 MG xenograft, heart", "conditions": "intravenous, 0.5 h", "endpoint": "tissue uptake", "value": "0.48 ± 0.08 %ID/g"}
{"Structure (SMILES)": "CCCCCOc1ccc(-c2ccc(-c3ccc(C(=O)N[C@H]4C[C@@H](O)[C@@H](OCC[N+](C)(C)C)NC(=O)[C@@H]5[C@@H](O)[C@@H](C)CN5C(=O)[C@H]([C@@H](C)O)NC(=O)[C@H]([C@H](O)[C@@H](O)c5ccc(O)cc5)NC(=O)[C@@H]5C[C@@H](O)CN5C(=O)[C@H]([C@@H](C)O)NC4=O)cc3)cc2)cc1", "test system": "healthy adult humans, plasma", "conditions": "subcutaneous, 10 mg, single dose, geometric mean", "endpoint": "Vz/F", "value": "68.5 L"}
{"note": "Excerpt of the above:"}
{"Structure (SMILES)": "CCCCCOc1ccc(-c2ccc(-c3ccc(C(=O)N[C@H]4C[C@@H](O)[C@@H](OCC[N+](C)(C)C)NC(=O)[C@@H]5[C@@H](O)[C@@H](C)CN5C(=O)[C@H]([C@@H](C)O)NC(=O)[C@H]([C@H](O)[C@@H](O)c5ccc(O)cc5)NC(=O)[C@@H]5C[C@@H](O)CN5C(=O)[C@H]([C@@H](C)O)NC4=O)cc3)cc2)cc1", "test system": "healthy adult humans, plasma", "conditions": "subcutaneous, 10 mg, single dose, geometric mean", "endpoint": "Vz/F", "value": "68.5 L"}
